Measured values collected from several papers.
Every numbered part comes from another study and shows a few of its results, in no order. Changes are numbered by the printed parent chain.

Set 1 — technique: protein-binding microarray; molecule type: double-stranded DNA, one strand shown; sample: in vitro; tested at: 250 nM; setting: 60-bp whole probe; with: salmon DNA 0.4 mg/ml; reference: random background probes; direction: higher = stronger binding; constant ends, left off below: GCCTAGCAC … GTCTTGATTCGCTTGACGCTGCTG
Target: Interferon regulatory factor 5, full length, phosphomimetic (IRF5, Homo sapiens, UniProt Q13568-2, residues 1-514, K96S/S451D/S453D/S456D/S462D)
Sequence	log fluorescence [z-score]
TTAGATATCGGGAATGGATTAGTGCTA	1.6
TCTACTTCTGTTTTTGCTTTGTGCTAG	1.5
TCAGATTTTTAGTTAGAACTGTGCTAG	0.478
TTAGGTTTCCTTCTCCCTTAGTGCTAG	0.854
GACGGACTGGACTATCGGGCCGTGCTA	0.464
TTTGGTTTCGGTTTCGGTTAGTGCTAG	12.3
TTAGATATCGGTATCGGTTAGTGCTAG	9.02
TGTCTTTTCATTTTCTTTAAGTGCTAG	2.68
GAAGGACTGGGGTATCGGGACGTGCTA	0.0103
TTAGGTCTCGGTTTCGGTGAGTGCTAG	6.37
TTAGATCTCGGTTTCGGTTAGTGCTAG	8.91
TTCGGACTGGGGTATCGGTTAGTGCTA	2.62
GACGGTTTCCGTTCCGGGACGTGCTAG	1.25
GACGAACTGGGGGATCGAGACGTGCTA	-0.00475
TTGGTTTCTGGTTTATTGAGGTGCTAG	4.04
AACGGTCTCCTTATCCTGACGTGCTAG	-0.153
CTTTACATGGGTTTTCAGCTGGTGCTA	0.361
TCAATTTTCATTAACTGACTGTGCTAG	2.16

Set 2 — technique: DHFR PCA, deep sequencing; sample: yeast; with: (+)-ABA 0.39 µM; reference: wild-type fitted maximum; direction: higher = stronger binding
Target: ABI1, truncated, D143A, DHFR fusion (Arabidopsis thaliana)
Setting: methotrexate growth selection, single substitutions
Starting sequence: PYL1, truncated, DHFR fusion (Arabidopsis thaliana); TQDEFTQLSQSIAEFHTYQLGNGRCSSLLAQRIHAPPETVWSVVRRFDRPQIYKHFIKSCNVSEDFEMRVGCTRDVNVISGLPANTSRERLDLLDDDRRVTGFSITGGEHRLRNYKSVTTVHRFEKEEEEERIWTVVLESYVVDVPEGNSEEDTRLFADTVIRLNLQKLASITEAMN
Change	relative binding score [%]
N77W	21.9
R132I	27.1
R99P	-8.11
G23T	10.1
H55T	52.6
E67A	25.7
N22Q	57
L93S	-3.83
G102C	-8.36
D75I	60.5
V118S	7.28
H110V	1.55
R49E	30.8
P50D	1.15
W41C	3.76
M68K	6.77
R90M	5.74
R111A	0.384
F15C	-6.46

Set 3 — target: UBE2L6 UBC core domain (UniProt O14933); technique: yeast two-hybrid; sample: yeast; setting: mostly zero background; reference: not given; direction: higher = stronger interaction
B1: RC3H2 RING domain (UniProt Q9HBD1); chain QAAQWTEFLSCPICYNEFDENVHKPISLGCSHTVCKTCLNKLHRKACPFDQTAINTDIDVL
B2: TRIM8 RING domain (UniProt Q9BZR9); chain WKNCFEEELICPICLHVFVEPVQLPCKHNFCRGCIGEAWAKDSGLVRCPECNQAYNQKPGLE
B3: PHF21A RING domain (UniProt Q96BD5); chain SPTSTDGDIHEDFCSVCRKSGQLLMCDTCSRVYHLDCLDPPLKTIPKGMWICPRCQDQMLKKEEAIPW
B4: RNF170 RING domain (UniProt Q96K19); chain TRQQFYTDMYCPICLHQASFPVETNCGHLFCGACIIAYWRYGSWLGAISCPICRQTVTLLLTVF
B5: TRIM63 RING domain (UniProt Q969Q1); chain PMENLEKQLICPICLEMFTKPVVILPCQHNLCRKCANDIFQAANPYWTSRGSSVSMSGGRFRCPTCRHEVIMDRHGV
Construct (chain): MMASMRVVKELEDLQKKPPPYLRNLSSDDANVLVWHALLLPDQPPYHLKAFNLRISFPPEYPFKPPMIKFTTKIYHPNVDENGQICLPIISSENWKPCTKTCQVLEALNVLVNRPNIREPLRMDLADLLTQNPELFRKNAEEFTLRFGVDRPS
Sequence	lacZ reporter activity
B1 (RC3H2 RING domain)	0
DAIPSLSECQCGICMEILVEPVTLPCNHTLCKPCFQSTVEKASLCCPFCRRRVSSWTRYH (RNF168 RING domain (UniProt Q8IYW5))	0
B2 (TRIM8 RING domain)	0
PEELQAMDNVCIICREEMVTGAKRLPCNHIFHTSCLRSWFQRQQTCPTCRMDVLRASLPA (SYVN1 RING domain (UniProt Q86TM6))	0
B3 (PHF21A RING domain)	0
QLRRLQEERTCKVCMDKEVSIVFIPCGHLVVCKDCAPSLRKCPICRSTIKGTVRTF (BIRC3 RING domain (UniProt Q13489))	0
B4 (RNF170 RING domain)	0
B5 (TRIM63 RING domain)	0

Set 4 — target: CCNE2, cyclin fold, Cln2 fusion (human); technique: yeast growth competition, sequencing; sample: yeast; setting: strong parent motif; reference: not given; direction: higher = stronger binding
Starting sequence: INSM1 docking peptide (human); PKAIRKLHFEDEV; partner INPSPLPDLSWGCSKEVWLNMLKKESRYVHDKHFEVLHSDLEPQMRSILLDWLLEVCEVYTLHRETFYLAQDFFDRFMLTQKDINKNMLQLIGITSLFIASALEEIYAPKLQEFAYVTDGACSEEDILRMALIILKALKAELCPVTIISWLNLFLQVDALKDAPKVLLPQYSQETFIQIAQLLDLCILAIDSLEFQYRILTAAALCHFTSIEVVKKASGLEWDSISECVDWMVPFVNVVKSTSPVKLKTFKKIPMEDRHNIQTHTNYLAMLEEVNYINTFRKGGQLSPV
Change	normalised enrichment score
R5P	0.0863
E10T	1.36
F9G	0.316
K2Q	1.29
K2F	1.02
D11P	1.46
I4N	0.879
H8D	1.29
F9H	0.392
A3F	0.717
L7T	0.202
R5H	0.0935
E12N	1.97
L7E	-0.0543

Set 5 — technique: RNA Bind-n-Seq; molecule type: RNA; sample: in vitro; tested at: 365 nM; reference: no-protein control; direction: higher = stronger binding
Target: RNA binding protein fox-1 homolog 2, RRM domain, GST-SBP tag (RBFOX2, Homo sapiens, UniProt O43251-10, residues 100-194)
Setting: natural RNA segment, single round, ends assumed
Residues (chain): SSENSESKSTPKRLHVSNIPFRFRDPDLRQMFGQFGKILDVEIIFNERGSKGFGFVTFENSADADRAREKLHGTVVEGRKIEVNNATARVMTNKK
Sequence	RBNS enrichment (R)
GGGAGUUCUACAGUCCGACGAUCGAGGAAAGUCUUGUGCCAAGAAUAGUUUAACUGGAAAGAUACUACCUGGAAUAUUAGAUGGAAAGCUUCACAUUAGCAUUUUGUGCAUAAUGAUAGAAACAGAUUCUGAUUGGAAUUCUCGGGUGCCAA	5.41
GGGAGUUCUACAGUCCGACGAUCUGGUAGUGGUCUGCCGUGCAGGGGAUGCCUGCUAUGCAGGUGAUGCCCUCCCAGGAUCUAUUCCUGGUGGGCACUGCUGUGUCUCCCCCAGAGUGGCACUCAAAGUACUAUGGAAUUCUCGGGUGCCAA	0.237
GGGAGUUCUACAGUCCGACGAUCAACCUGGUCGAUAGCUCGAGAAAGAAUUUUUUCCAAGGAAAUGUCUCGGAUAUGGGUACUGUAUUUGAAAGCUGUUAGCUUUGUCAACACGCAUUGUCCUUGUCAUUUGGUGGAAUUCUCGGGUGCCAA	0.38
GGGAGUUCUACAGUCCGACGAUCAGGAACAAUCACAGCUAUGUGUGACUUUCCUUUUCCCACCUCACCUUGAUGUAGGUGUUUCAAGUGAACUUUAGACCAACAGUUGCCCAGUGACCUGCUAAAAAGUCAACUGGAAUUCUCGGGUGCCAA	0.223
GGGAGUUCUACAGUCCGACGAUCCUACUGGCCAGGUCACCAAGCAGUGGCCUUUAUCUGACAUGCUCACUUUAUUAUCCAUGUUUUAAAAAUACAUAGUUGUUGUACCUGCUAUGUUUUACCGUUGAUGAAAGUGGAAUUCUCGGGUGCCAA	0.25
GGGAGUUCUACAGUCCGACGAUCGGUGGCACCACCAUGGUUACAGCGGAUGCCCCGAGACUCUGCUUGGUAAACGUGGCAGAGCAGAAUGGGAGGCUGGACCCUGAGGAAGGGCCCCUCUCCUGGCAUCUGUCUGGAAUUCUCGGGUGCCAA	0.46
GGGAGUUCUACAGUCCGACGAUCCACUGCAUUUUGGUUUCACAAUUCUUCAUCUCCCUUCCCAAGGAAUGGGCAAUCUACUGAACUUCCAGAUCAAUGCUUUGUUGGAAAGUGAUGAAUUUAAGAGAGUUUUAUGGAAUUCUCGGGUGCCAA	5.86
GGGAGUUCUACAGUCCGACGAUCAAAUUAUUUUAAAAGAAAUACAACAUCUUAUUCUUUAGCUUUCUUAAUCGGUGCUUUAUGGAGGCCAGUGUAACGUUACAUGACUCGUUGAGAAAGUUGAGGAAUUUCCUUGGAAUUCUCGGGUGCCAA	0.531
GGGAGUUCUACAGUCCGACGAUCGACUACCCGUGGGUAAGUCCUGCCAUUCAAGACUGGAGACACCUGGGAAAUAAAAAGAGCAGGGCACUGCUGGUGGGAAGAGGCAUUUUACCUUCCAGUGCAAAUCCUGCUGGAAUUCUCGGGUGCCAA	0.22
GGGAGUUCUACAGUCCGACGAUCUAAUGAGUUAUUUUACUUUUUUUCAUAUUAGGCCUUUGAAAUUCAGUGUGUAUUAAACACAUCUCAAUUCAAACCAUCACCAUAUUUCAAGUCUUUGUAGCCAAAUGUGAUGGAAUUCUCGGGUGCCAA	0.442
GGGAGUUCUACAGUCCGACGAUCGUUUUUCUUUUGCCAUACAAAGUUAUUAUCAUAUGAUUCUAUUUGGCUUCCUUCAAACUAUUGUUUGUAUACUAUAUUUGCUUGGCAAGGGGAGGUAGCUUUCUGUAUAAUGGAAUUCUCGGGUGCCAA	0.547
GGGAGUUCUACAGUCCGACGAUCUGUACUGCCUGCCACCGCGGAGGAGGCUGGUGACAGGCCAAAGGCCAGUGGAAGAAACACCCUUUCAUCUCAGAGUCCACUGUGGCACUGGCCACCCCUCCCCAGUACAGUGGAAUUCUCGGGUGCCAA	0.392

Set 6 — technique: protein binding microarray; molecule type: double-stranded DNA, one strand shown; sample: in vitro; tested at: not given; reference: not given; direction: higher = stronger binding
Target: Histone acetyltransferase KAT6A, winged helix 1, GST fusion (KAT6A, Homo sapiens, UniProt Q92794, residues 1-85)
Setting: 8-mer, flanks averaged, mean of 2 arrays, mostly near background
Target sequence (chain): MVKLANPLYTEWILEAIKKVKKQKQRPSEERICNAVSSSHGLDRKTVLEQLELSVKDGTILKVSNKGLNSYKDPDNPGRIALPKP
Sequence	E-score
ATAGAAAA	-0.137
CGCAAAAA	0.0886
CACTCCGC	0.103
CCGCCCGG	0.417
AGCGTGAC	0.112
ACGATGTC	-0.0606
ATTTGATA	-0.193
GTTGAGCA	-0.184
AAGAAGTG	-0.117
CAAAAGAG	-0.0632
GGTCACCA	-0.145
ACCGTCCA	0.162
CCCTCGTC	-0.0276
CTTTACCA	-0.185
ATAGTGGG	-0.25
AACCACTT	-0.109
CCCTGCCA	-0.107

A few entries again (set 6):
Sequence	E-score
CACTCCGC	0.103
CCGCCCGG	0.417
AGCGTGAC	0.112
ACGATGTC	-0.0606
ATTTGATA	-0.193
GTTGAGCA	-0.184
AAGAAGTG	-0.117
CAAAAGAG	-0.0632
GGTCACCA	-0.145
ACCGTCCA	0.162
CCCTCGTC	-0.0276
CTTTACCA	-0.185
